Experimental data collected from several papers.
Every numbered part comes from another study and shows a few of its results, in no order.
Chain of UniProt Q13237 (whole entry, looked up): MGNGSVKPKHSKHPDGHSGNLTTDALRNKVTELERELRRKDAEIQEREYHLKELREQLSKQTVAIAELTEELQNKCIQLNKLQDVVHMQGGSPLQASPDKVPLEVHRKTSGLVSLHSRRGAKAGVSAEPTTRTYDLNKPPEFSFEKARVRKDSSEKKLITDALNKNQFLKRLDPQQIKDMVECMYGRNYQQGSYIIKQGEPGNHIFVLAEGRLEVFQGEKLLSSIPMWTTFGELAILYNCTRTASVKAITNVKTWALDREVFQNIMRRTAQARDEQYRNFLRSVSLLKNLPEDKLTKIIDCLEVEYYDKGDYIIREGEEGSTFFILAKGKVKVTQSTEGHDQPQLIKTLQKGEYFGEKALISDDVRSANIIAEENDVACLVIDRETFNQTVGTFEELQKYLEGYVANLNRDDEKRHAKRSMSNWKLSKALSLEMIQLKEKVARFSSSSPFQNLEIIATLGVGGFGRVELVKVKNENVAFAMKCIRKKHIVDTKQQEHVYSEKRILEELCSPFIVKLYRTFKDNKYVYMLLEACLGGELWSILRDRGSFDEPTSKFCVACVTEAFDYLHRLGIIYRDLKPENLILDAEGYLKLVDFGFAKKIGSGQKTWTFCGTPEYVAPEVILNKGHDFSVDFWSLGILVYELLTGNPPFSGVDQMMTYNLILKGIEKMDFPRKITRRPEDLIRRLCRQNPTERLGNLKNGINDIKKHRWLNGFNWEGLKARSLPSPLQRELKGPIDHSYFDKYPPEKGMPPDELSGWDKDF
Chain of UniProt Q9UK32 (whole entry, looked up): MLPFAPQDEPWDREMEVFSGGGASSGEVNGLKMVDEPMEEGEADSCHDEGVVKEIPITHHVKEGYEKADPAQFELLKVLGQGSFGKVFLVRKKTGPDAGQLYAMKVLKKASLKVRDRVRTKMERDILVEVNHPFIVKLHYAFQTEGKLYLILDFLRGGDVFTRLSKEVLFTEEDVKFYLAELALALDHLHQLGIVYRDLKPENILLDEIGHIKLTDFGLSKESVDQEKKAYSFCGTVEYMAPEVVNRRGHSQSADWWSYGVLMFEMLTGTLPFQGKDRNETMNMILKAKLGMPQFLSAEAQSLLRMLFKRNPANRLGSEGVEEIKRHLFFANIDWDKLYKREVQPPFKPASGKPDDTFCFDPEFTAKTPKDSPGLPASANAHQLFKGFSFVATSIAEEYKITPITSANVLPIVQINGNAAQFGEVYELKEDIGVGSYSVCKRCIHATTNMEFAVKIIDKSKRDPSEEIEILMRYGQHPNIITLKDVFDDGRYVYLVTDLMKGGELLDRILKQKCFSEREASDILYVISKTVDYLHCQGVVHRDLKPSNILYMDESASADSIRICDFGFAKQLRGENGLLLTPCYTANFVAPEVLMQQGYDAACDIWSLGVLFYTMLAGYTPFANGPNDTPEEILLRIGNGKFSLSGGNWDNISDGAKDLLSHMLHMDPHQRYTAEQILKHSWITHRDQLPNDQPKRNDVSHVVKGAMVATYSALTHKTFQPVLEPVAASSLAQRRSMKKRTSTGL
Chain of UniProt Q92772 (whole entry, looked up): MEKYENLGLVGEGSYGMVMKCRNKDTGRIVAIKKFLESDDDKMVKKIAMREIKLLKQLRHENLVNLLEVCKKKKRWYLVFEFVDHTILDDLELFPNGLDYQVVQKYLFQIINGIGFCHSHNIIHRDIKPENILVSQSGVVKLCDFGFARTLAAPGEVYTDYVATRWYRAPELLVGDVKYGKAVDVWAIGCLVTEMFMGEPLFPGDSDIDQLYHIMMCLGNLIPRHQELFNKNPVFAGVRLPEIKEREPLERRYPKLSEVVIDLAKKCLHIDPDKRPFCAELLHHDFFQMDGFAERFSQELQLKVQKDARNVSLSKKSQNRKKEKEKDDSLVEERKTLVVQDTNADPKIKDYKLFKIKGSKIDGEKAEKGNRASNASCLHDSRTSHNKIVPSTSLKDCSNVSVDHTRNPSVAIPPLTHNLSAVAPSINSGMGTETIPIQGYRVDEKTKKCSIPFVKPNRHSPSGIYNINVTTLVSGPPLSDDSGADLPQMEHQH
Chain of UniProt Q9NY57 (whole entry, looked up): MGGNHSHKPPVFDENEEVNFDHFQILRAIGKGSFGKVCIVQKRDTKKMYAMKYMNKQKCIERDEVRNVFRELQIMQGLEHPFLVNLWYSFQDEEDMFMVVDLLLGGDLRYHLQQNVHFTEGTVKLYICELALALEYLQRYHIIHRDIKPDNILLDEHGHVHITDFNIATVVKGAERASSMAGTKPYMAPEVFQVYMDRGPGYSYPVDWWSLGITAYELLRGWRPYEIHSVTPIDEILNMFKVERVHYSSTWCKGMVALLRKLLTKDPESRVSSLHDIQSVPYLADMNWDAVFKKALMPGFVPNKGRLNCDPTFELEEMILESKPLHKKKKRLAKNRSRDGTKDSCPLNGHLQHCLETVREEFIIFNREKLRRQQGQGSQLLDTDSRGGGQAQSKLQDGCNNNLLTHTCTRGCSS
Chain of UniProt P49137 (whole entry, looked up): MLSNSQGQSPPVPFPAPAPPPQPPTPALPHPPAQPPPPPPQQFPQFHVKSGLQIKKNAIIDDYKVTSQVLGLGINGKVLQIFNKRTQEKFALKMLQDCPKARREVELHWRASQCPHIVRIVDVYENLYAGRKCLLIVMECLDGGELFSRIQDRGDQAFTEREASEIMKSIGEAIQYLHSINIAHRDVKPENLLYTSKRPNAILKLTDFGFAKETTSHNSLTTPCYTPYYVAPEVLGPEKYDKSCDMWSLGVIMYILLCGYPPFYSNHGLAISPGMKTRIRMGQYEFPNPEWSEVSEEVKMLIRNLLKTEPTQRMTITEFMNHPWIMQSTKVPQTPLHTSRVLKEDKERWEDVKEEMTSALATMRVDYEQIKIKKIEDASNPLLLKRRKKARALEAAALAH

Series 1 — technique: RNAcompete; molecule type: RNA; matrix: in vitro; concentration: 20 nM; notes: 7-mer, probes averaged, single round; relative to: mean of 7-mers; direction: higher = stronger binding; quantity: 7-mer Z-score
Target: PABPC1L2, full length, GST fusion (mouse, UniProt A0ABA7IW68)
Target sequence (chain): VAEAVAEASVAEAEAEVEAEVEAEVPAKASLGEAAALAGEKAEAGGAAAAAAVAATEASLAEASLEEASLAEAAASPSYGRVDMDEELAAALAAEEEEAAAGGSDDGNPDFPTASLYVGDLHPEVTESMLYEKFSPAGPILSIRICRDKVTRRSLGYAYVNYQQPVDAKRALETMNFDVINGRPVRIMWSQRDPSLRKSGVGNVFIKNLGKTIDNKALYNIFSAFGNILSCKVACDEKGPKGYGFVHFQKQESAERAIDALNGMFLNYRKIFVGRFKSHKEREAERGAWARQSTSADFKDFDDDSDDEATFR
AUCGCAU: -0.2
AGCCACG: -0.0264
UCCCACC: -0.416
ACAUAUA: 0.0877
AAGUCGU: -0.103
CAACGUG: -0.0409
UCGUCCU: -0.514
CCGGGGU: -0.0428

Series 2 — effect on: enzyme activity; action: inhibitor; concentration: 0.5 µM; relative to: control; quantity: remaining activity
Target: Myosin-IIIb (MYO3B, Homo sapiens, UniProt Q8WXR4)
Chain of UniProt Q8WXR4 (whole entry, looked up): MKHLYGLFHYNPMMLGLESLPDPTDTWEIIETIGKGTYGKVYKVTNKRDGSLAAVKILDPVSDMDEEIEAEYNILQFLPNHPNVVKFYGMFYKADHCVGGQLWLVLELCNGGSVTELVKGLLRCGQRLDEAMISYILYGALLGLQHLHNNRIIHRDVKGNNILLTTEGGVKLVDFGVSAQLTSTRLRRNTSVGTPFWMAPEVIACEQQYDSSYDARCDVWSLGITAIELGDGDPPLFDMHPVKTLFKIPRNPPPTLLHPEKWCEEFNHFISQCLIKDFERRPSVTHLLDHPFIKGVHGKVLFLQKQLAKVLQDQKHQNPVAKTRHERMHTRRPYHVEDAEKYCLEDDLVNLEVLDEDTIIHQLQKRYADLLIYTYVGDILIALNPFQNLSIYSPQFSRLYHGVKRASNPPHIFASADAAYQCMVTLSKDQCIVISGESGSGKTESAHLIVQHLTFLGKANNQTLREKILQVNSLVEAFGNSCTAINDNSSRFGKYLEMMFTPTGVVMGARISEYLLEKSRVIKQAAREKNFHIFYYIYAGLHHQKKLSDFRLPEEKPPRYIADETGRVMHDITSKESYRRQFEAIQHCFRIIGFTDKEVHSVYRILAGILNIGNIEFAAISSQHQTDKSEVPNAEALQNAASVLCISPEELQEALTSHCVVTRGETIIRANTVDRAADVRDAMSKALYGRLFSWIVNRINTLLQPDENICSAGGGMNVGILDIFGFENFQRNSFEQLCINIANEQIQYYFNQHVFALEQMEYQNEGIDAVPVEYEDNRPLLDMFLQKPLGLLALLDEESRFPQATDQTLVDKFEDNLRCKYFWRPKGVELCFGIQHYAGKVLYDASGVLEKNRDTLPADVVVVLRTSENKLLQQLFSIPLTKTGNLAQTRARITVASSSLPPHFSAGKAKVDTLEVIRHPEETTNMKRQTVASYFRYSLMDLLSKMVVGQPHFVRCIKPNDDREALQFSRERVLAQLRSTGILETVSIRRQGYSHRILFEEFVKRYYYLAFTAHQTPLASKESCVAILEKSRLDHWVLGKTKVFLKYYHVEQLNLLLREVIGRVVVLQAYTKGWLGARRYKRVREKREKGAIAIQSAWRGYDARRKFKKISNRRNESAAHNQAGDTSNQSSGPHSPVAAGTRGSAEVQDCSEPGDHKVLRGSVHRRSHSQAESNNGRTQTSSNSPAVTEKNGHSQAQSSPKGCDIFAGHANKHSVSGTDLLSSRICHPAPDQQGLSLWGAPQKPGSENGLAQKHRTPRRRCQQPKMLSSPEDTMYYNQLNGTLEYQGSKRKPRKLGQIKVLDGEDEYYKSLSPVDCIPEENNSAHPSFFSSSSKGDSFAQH
CO[C@H]1C[C@@H]2CC[C@@H](C)[C@@](O)(O2)C(=O)C(=O)N2CCCC[C@H]2C(=O)O[C@H]([C@H](C)C[C@@H]2CC[C@@H](O)[C@H](OC)C2)CC(=O)[C@H](C)/C=C(\C)[C@@H](O)[C@@H](OC)C(=O)[C@H](C)C[C@H](C)/C=C/C=C/C=C/1C: 106%
Oc1ccc(-c2nc(-c3ccncc3)c(-c3ccc(F)cc3)[nH]2)cc1: 101%
Nc1ncnc2n[nH]c(Nc3ccc(F)cc3)c12: 87.9%
Cc1ccc(NC(=O)c2ccc(CN3CCN(C)CC3)cc2)cc1Nc1nc(-c2cccnc2)cs1: 82.6%
COc1cc2ncnc(Nc3ccc(F)c(Cl)c3)c2cc1OCCCN1CCOCC1: 91.4%
O=C1NC(=O)C(c2cn(CCCn3ccnc3)c3ccccc23)=C1Nc1ccccc1: 36%
N#CC(C#N)=C(N)/C(C#N)=C/c1ccc(O)cc1: 88.1%
COc1cc2ncnc(Nc3ccc(Oc4ccccc4)cc3)c2cc1OC: 103%
C#Cc1cccc(Nc2ncnc3cc(OCCOC)c(OCCOC)cc23)c1: 84.4%
CCOC(=O)c1c(C)[nH]c(/C=C2\C(=O)Nc3ccccc32)c1C: 74.1%
O=C(CCCc1ccc(-c2ccccc2F)cc1)Nc1ccc(O)cc1: 96.3%
Cc1nc(-c2ccccc2)c(-c2ccncc2)o1: 108%
Cc1ccc(Nc2nccc(N(C)c3ccc4c(C)n(C)nc4c3)n2)cc1S(N)(=O)=O: 83.4%

Series 3 — concentration: 1 µM; quantity: remaining binding
SMILES: CC(=O)C1=C(C)N(c2cccc(C(F)(F)F)c2)C(=O)N[C@@H]1c1ccc(C#N)nc1
cGMP-dependent protein kinase 2 (PRKG2, Homo sapiens, UniProt Q13237); cell-free assay, competition with immobilised ligand: 100%
Phosphatidylinositol 3-kinase catalytic subunit type 3 (PIK3C3, Homo sapiens, UniProt Q8NEB9); cell-free assay, competition with immobilised ligand: 100%
Serine/threonine-protein kinase 32B (STK32B, Homo sapiens, UniProt Q9NY57); cell-free assay, competition with immobilised ligand: 100%
Myosin-IIIb (MYO3B, Homo sapiens, UniProt Q8WXR4); binding, competition with immobilised ligand: 78.3%
MAP kinase-activated protein kinase 2 (MAPKAPK2, Homo sapiens, UniProt P49137); cell-free assay, competition with immobilised ligand: 82.6%
Dual serine/threonine and tyrosine protein kinase (DSTYK, Homo sapiens, UniProt Q6XUX3); cell-free assay, competition with immobilised ligand: 76.9%
Ribosomal protein S6 kinase alpha-6, N-terminal kinase domain (RPS6KA6, Homo sapiens, UniProt Q9UK32); cell-free assay, competition with immobilised ligand: 100%
Ephrin type-B receptor 2 (EPHB2, Homo sapiens, UniProt P29323); cell-free assay, competition with immobilised ligand: 100%
Phosphatidylinositol 4,5-bisphosphate 3-kinase catalytic subunit alpha isoform (PIK3CA, Homo sapiens, UniProt P42336, M1043I); cell-free assay, competition with immobilised ligand: 100%
Tyrosine-protein kinase JAK3, JH1 (JAK3, Homo sapiens, UniProt P52333); cell-free assay, competition with immobilised ligand: 70.5%
Cyclin-dependent kinase 11A (CDK11A, Homo sapiens, UniProt Q9UQ88); binding, competition with immobilised ligand: 95.7%
Vascular endothelial growth factor receptor 1 (FLT1, Homo sapiens, UniProt P17948); cell-free assay, competition with immobilised ligand: 62.4%
Tyrosine-protein kinase ABL1, phosphorylated (ABL1, Homo sapiens, UniProt P00519); cell-free assay, competition with immobilised ligand: 83.3%
Cyclin-dependent kinase-like 2 (CDKL2, Homo sapiens, UniProt Q92772); cell-free assay, competition with immobilised ligand: 75.4%
Dual specificity testis-specific protein kinase 1 (TESK1, Homo sapiens, UniProt Q15569); cell-free assay, competition with immobilised ligand: 100%
Homeodomain-interacting protein kinase 4 (HIPK4, Homo sapiens, UniProt Q8NE63); cell-free assay, competition with immobilised ligand: 100%
Serine/threonine-protein kinase SIK1 (SIK1, Homo sapiens, UniProt P57059); competition binding: 100%
Serine/threonine-protein kinase ULK1 (ULK1, Homo sapiens, UniProt O75385); cell-free assay, competition with immobilised ligand: 100%
Tyrosine-protein kinase Blk (BLK, Homo sapiens, UniProt P51451); cell-free assay, competition with immobilised ligand: 95.8%

Series 4 — technique: RNA Bind-n-Seq; molecule type: RNA; matrix: in vitro; concentration: not given; notes: 4-mer, random 30-nt RNA, single round; together with: RocA, ADP, phosphate; relative to: input library; direction: higher = stronger binding; quantity: 4-mer enrichment
Target: ATP-dependent RNA helicase DDX3X, helicase core (DDX3X, Homo sapiens, UniProt O00571, residues 132-607)
Chain of UniProt O00571 (132-607, looked up): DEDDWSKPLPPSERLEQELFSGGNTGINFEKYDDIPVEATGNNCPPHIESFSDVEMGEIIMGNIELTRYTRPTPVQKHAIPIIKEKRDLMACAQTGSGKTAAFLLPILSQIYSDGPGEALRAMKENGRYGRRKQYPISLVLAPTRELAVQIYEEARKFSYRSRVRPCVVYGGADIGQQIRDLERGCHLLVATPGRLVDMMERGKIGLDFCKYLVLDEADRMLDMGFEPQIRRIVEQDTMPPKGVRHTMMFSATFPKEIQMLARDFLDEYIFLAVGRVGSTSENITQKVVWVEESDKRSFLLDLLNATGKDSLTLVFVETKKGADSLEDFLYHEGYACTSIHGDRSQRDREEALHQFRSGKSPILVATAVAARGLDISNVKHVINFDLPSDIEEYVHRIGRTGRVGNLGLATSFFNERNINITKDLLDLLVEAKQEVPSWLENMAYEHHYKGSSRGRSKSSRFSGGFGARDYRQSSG
UCGA: 1.07 fold
AAAA: 1.13 fold
UUGC: 0.743 fold
UGUC: 0.933 fold
AUUG: 0.969 fold
AACA: 0.828 fold
AUUU: 0.939 fold
AUGA: 1.39 fold

For quick reference, copied from above (series 2):
CCOC(=O)c1c(C)[nH]c(/C=C2\C(=O)Nc3ccccc32)c1C: 74.1%
O=C1NC(=O)C(c2cn(CCCn3ccnc3)c3ccccc23)=C1Nc1ccccc1: 36%
COc1cc2ncnc(Nc3ccc(F)c(Cl)c3)c2cc1OCCCN1CCOCC1: 91.4%
O=C(CCCc1ccc(-c2ccccc2F)cc1)Nc1ccc(O)cc1: 96.3%
Cc1nc(-c2ccccc2)c(-c2ccncc2)o1: 108%
